Experimental data collected from several papers.
Lines come from different studies, so protocols differ. Numbers after ± are the reported error. Converted amounts (≈) assume the structure as drawn. Ends that are not written are not given here.
Organism: Pseudomonas aeruginosa

CC[C@@H](C)[C@@H](NC(=O)[C@@H](C)NC(=O)[C@@H](CCCNC(=N)N)NC(=O)[C@@H](Cc1c[nH]c2ccccc12)NC(=O)[C@@H](CCC(N)=O)NC(=O)[C@H](N)C(C)C)C(=O)N[C@H](CCCNC(=N)N)C(=O)N[C@@H](C(=O)N[C@H](CCCNC(=N)N)C(=O)N[C@@H](C(=O)N[C@@H](C(=O)N[C@H](CCCNC(=N)N)C(N)=O)[C@H](C)CC)C(C)C)C(C)C has a survival of 42 ± 7% (PAO1, Galleria mellonella larvae; proleg injection, 20 µg per larva, 48 h post infection, 37 °C, dosed 1 h after infection).
For Cc1ccc(S(=O)(=O)Oc2cc(C(C)C)cccc2=O)cc1, the MIC80 was greater than 100 µM (microbial growth, broth dilution; ATCC27853).
For Cc1cc(C)n(C(N)=S)n1, the MBC was greater than 1000 µg/mL (broth microdilution, agar subculture; ATCC 25619; 24 h).
With NS(=O)(=O)c1ccc(NC2=NC(=O)/C(=C\c3ccc(O)cc3)S2)cc1 the inhibition was 18.6% (microbial growth; ATCC10145; 50 µg/mL, 24 h).
The MIC90 of CC[C@H](C)[C@H](NC(=O)CNC(=O)[C@H](CCC(=O)O)NC(=O)[C@H](CO)NC(=O)[C@@H](NC(=O)[C@H](CCCNC(=N)N)NC(=O)[C@H](CCCCN)NC(=O)[C@H](CCCCN)NC(=O)[C@H](C)NC(=O)[C@H](CO)NC(=O)[C@H](CC(N)=O)NC(=O)[C@H](CCC(=O)O)NC(=O)[C@H](CC(C)C)NC(=O)[C@H](CCCCN)NC(=O)[C@H](CCCCN)NC(=O)[C@H](C)NC(=O)[C@@H](NC(=O)[C@H](CCCCN)NC(=O)[C@H](CO)NC(=O)[C@H](CC(C)C)NC(=O)[C@H](Cc1c[nH]c2ccccc12)NC(=O)[C@@H](N)CO)[C@@H](C)O)[C@@H](C)CC)C(=O)N[C@@H](C)C(=O)N[C@H](C(=O)N[C@@H](C)C(=O)N[C@H](C(=O)N[C@@H](CCC(N)=O)C(=O)NCC(=O)NCC(=O)N1CCC[C@H]1C(=O)N[C@@H](CCCNC(=N)N)C(=O)O)[C@@H](C)CC)[C@@H](C)CC is reported as 16 µg/mL (≈ 4.79 µM) (broth microdilution; 18 h, 10 clinical isolates).
CC(C)C[C@H](NC(=O)CNC(=O)[C@H](C)NC(=O)c1ccc(S[C@@H]2O[C@H](CO)[C@H](O)[C@H](O)[C@H]2O)cc1)C(=O)N[C@@H](C)C(=O)NC[C@@H]1CCN(c2cc3c(cc2F)c(=O)c(C(=O)O)cn3C2CC2)C1 gave an MIC of 1.56 to 3.13 µM (broth microdilution; PA14, P. aeruginosa supernatant in PBS; 10% supernatant, 3 h preincubation).
`GIGKFLHSAKKFGKAFVGEIMNS-NH2 (C-amide)` has an MIC50 of 10.6 ± 2.21 µg/mL (bacterial growth, broth microdilution; peptide, PAO1, Mueller-Hinton broth; overnight, 37 °C).
With `polymyxin B` the MBIC was 8 µg/mL (biofilm formation, inhibitor; PAO1; 24 h, 37 °C).
For O=C(Nc1ccc([N+](=O)[O-])cc1F)c1cc(Cl)ccc1O, the MIC was greater than 64 µg/mL (microbial growth, broth dilution; ATCC27853).
With O=C(O)c1cn(C2CC2)c2cc(N3CCNCC3)c(F)cc2c1=O the inhibition was 99.2% (microbial growth; ATCC10145; 50 µg/mL, 24 h).
`GWGSFFKKAAHVGKHVGKAALTHYL-NH2 (C-amide)` gave an MIC50 of 1.65 ± 0.87 µg/mL (bacterial growth, broth microdilution; peptide, PAO1, Mueller-Hinton broth; overnight, 37 °C).
The inhibition of CC(=O)N[C@@H](C)C(=O)N[C@@H](CCC(N)=O)C(=O)N[C@@H](CCCCN)C(=O)N[C@@H](CC(C)C)C(=O)N[C@@H](CC(C)C)C(=O)N[C@@H](CCCCN)C(=O)N[C@@H](CCCCN)C(=O)N[C@@H](Cc1ccccc1)C(=O)N[C@@H](CO)C(=O)N[C@@H](CC(C)C)C(=O)N[C@@H](CC(C)C)C(=O)N[C@@H](CCCCN)C(=O)N1CCC[C@H]1C(=O)N[C@@H](Cc1c[nH]c2ccccc12)C(=O)N[C@@H](C)C(=O)O is reported as 47% (Fe2+ uptake; PA14, iron-depleted; 10 µM, 45 min pretreatment, 35 °C, with: FeSO4 100 µM, 15 min).
For O=C(Nc1cccc(C(F)(F)F)c1)c1cc(Cl)ccc1O, the MIC was greater than 64 µg/mL (microbial growth, broth dilution; ATCC27853).
CC(C)(O/N=C(\C(=O)N[C@@H]1C(=O)N2C(C(=O)[O-])=C(C[n+]3ccccc3)CS[C@H]12)c1csc(N)n1)C(=O)O has an FIC index of 0.375 (checkerboard broth microdilution; clinical isolate 8-97; with: magainin II).
The MIC of O=C(Nc1ccc(F)c(Cl)c1)c1ccccc1O is reported as greater than 64 µg/mL (microbial growth, broth dilution; ATCC27853).
With CC(C)c1cccc(=S)c(O)c1 the MIC80 was greater than 100 µM (microbial growth, broth dilution; ATCC27853).
For O=C(Nc1ccccc1)c1cccc(Cl)c1, the MIC was greater than 64 µg/mL (microbial growth, broth dilution; ATCC27853).
The MBIC of `Polymyxin B` is reported as 16 µg/mL (biofilm formation; PAO1; 24 to 25 h, 37 °C).
CN(C)CCSc1nnc(C23CC4CC(CC(C4)C2)C3)n1C: “inhibition zone diameter” less than 10 mm (IFO 3448; 200 µg/disc, 24 h, 37 °C).
With CC[C@H]1OC(=O)[C@H](C)[C@@H](O[C@H]2C[C@@](C)(OC)[C@@H](O)[C@H](C)O2)[C@H](C)[C@@H](O[C@@H]2O[C@H](C)C[C@H](N(C)C)[C@H]2O)[C@](C)(O)C[C@@H](C)CN(C)[C@H](C)[C@@H](O)[C@]1(C)O the susceptible isolates was 0% (hospitalized pneumonia patients, clinical isolates; Fine score 70 or more).
NS(=O)(=O)c1ccc(NC2=NC(=O)/C(=C\c3ccc([N+](=O)[O-])cc3)S2)cc1 has an inhibition of 73.4% (microbial growth; ATCC10145; 50 µg/mL, 24 h).
For COc1cc(-c2oc3cc(O)cc(O)c3c(=O)c2O)ccc1O, the inhibition was greater than 50% (microbial growth; ATCC15692 PAO1; 11.1 µM).
CO/N=C(\C(=O)N[C@@H]1C(=O)N2C(C(=O)O)=C(CSc3nc(=O)c(=O)[nH]n3C)CS[C@H]12)c1csc(N)n1 has an FIC index of 0.312 (checkerboard broth microdilution; clinical isolate 8-97; with: magainin II).
CCC(=O)O[C@H]1[C@H](C)O[C@@H](O[C@H]2[C@H](N(C)C)[C@@H](O)[C@H](O[C@H]3[C@@H](CC=O)C[C@@H](C)[C@@H](O)/C=C/C=C/C[C@@H](C)OC(=O)C[C@@H](O)[C@@H]3OC)O[C@@H]2C)C[C@@]1(C)O: “inhibition zone diameter” 21.5 mm (K799/61, DMSO-methanol; 50 µL of 2.0 mM, 24 h, 37 °C, 9 mm well).
`GSSFLSPEHQRVQQRKESKKPPAKLQPR (ghrelin; ends and bridges not checked; sequence looked up)` has a bactericidal concentration of no less than 12.5 µg/mL (bacterial killing; peptide, ATCC 15692, sodium phosphate buffer; 2 h, pH 6.8, 37 °C; baseline: untreated).
The FIC index of CCN1CCN(C(=O)N[C@@H](C(=O)N[C@@H]2C(=O)N3[C@@H]2SC(C)(C)[C@@H]3C(=O)O)c2ccccc2)C(=O)C1=O is reported as 1 (checkerboard broth microdilution; clinical isolate 17-99; with: ranalexin).
The MBC of Cc1ccc(C(C)C)cc1.Cc1ccc(C(C)C)cc1.[Cl][Ru][Cl].[Cl][Ru][Cl] is reported as greater than 1000 µg/mL (broth microdilution, agar subculture; ATCC 25619).
The FIC index of CC[C@H]1OC(=O)[C@H](C)[C@@H](O[C@H]2C[C@@](C)(OC)[C@@H](O)[C@H](C)O2)[C@H](C)[C@@H](O[C@@H]2O[C@H](C)C[C@H](N(C)C)[C@H]2O)[C@](C)(OC)C[C@@H](C)C(=O)[C@H](C)[C@@H](O)[C@]1(C)O is reported as 1.5 (checkerboard broth microdilution; clinical isolate 8-97; with: magainin II).
O=c1c(O)c(-c2ccc(O)cc2)oc2cc(O)cc(O)c12 has an inhibition of greater than 50% (microbial growth; ATCC15692 PAO1; 11.1 µM).
CC1(C)S[C@@H]2[C@H](NC(=O)[C@H](N)c3ccccc3)C(=O)N2[C@H]1C(=O)O: “inhibition zone diameter” 16 mm (IFO 3448; 100 µg/disc, 24 h).
`colistin` has an FIC index of 0.25 (checkerboard titration; ATCC 27853; with: ranalexin).
With O=C(Nc1ccc(F)cc1[N+](=O)[O-])c1cc(Cl)ccc1O the MIC was greater than 64 µg/mL (microbial growth, broth dilution; ATCC27853).
For C[C@H](NC(=O)CNC(=O)[C@@H](NC(=O)[C@H](CO)NC(=O)[C@H](CC(=O)O)NC(=O)[C@H](CO)NC(=O)[C@H](CO)NC(=O)[C@H](C)NC(=O)[C@H](CC(=O)O)NC(=O)[C@@H](N)CCC(=O)O)[C@@H](C)O)C(=O)N[C@@H](CC(=O)O)C(=O)N1CCC[C@H]1C(=O)N[C@@H](C)C(=O)N[C@@H](CCC(N)=O)C(=O)N[C@@H](CCC(=O)O)C(=O)N[C@@H](C)C(=O)NCC(=O)N[C@H](C(=O)N[C@@H](CO)C(=O)N[C@@H](CCCCN)C(=O)N1CCC[C@H]1C(=O)N[C@@H](CC(N)=O)C(=O)N[C@@H](CCC(=O)O)C(=O)N[C@@H](CCC(=O)O)C(N)=O)[C@@H](C)O, iron uptake read “no effect” (PA14, iron-depleted; 10, 25 or 100 µM, 45 min, 35 °C, with: exogenous Fe2+).
C[C@H]1c2cccc(O)c2C(=O)C2=C(O)[C@]3(O)C(=O)C(C(N)=O)=C(O)[C@@H](N(C)C)[C@@H]3[C@@H](O)[C@@H]21 has an FIC index of 0.375 (checkerboard broth microdilution; clinical isolate 17-99; with: ranalexin).
NC(=S)n1nc(-c2ccccc2)cc1O has an MBC of greater than 1000 µg/mL (broth microdilution, agar subculture; ATCC 25619; 24 h).
For CCOC(=O)CSc1nnc(C23CC4CC(CC(C4)C2)C3)n1-c1ccccc1, “inhibition zone diameter” read less than 10 mm (IFO 3448; 200 µg/disc, 24 h, 37 °C).

A few entries again:
CC(C)C[C@H](NC(=O)CNC(=O)[C@H](C)NC(=O)c1ccc(S[C@@H]2O[C@H](CO)[C@H](O)[C@H](O)[C@H]2O)cc1)C(=O)N[C@@H](C)C(=O)NC[C@@H]1CCN(c2cc3c(cc2F)c(=O)c(C(=O)O)cn3C2CC2)C1 gave an MIC of 1.56 to 3.13 µM (broth microdilution; PA14, P. aeruginosa supernatant in PBS; 10% supernatant, 3 h preincubation).
`GIGKFLHSAKKFGKAFVGEIMNS-NH2 (C-amide)` has an MIC50 of 10.6 ± 2.21 µg/mL (bacterial growth, broth microdilution; peptide, PAO1, Mueller-Hinton broth; overnight, 37 °C).
With `polymyxin B` the MBIC was 8 µg/mL (biofilm formation, inhibitor; PAO1; 24 h, 37 °C).
For O=C(Nc1ccc([N+](=O)[O-])cc1F)c1cc(Cl)ccc1O, the MIC was greater than 64 µg/mL (microbial growth, broth dilution; ATCC27853).
With O=C(O)c1cn(C2CC2)c2cc(N3CCNCC3)c(F)cc2c1=O the inhibition was 99.2% (microbial growth; ATCC10145; 50 µg/mL, 24 h).
`GWGSFFKKAAHVGKHVGKAALTHYL-NH2 (C-amide)` gave an MIC50 of 1.65 ± 0.87 µg/mL (bacterial growth, broth microdilution; peptide, PAO1, Mueller-Hinton broth; overnight, 37 °C).
